Results collected from several papers.
Parts stem from different laboratories: compare values within a part only.
UniProt P42336, sequence (whole entry, unmodified, looked up): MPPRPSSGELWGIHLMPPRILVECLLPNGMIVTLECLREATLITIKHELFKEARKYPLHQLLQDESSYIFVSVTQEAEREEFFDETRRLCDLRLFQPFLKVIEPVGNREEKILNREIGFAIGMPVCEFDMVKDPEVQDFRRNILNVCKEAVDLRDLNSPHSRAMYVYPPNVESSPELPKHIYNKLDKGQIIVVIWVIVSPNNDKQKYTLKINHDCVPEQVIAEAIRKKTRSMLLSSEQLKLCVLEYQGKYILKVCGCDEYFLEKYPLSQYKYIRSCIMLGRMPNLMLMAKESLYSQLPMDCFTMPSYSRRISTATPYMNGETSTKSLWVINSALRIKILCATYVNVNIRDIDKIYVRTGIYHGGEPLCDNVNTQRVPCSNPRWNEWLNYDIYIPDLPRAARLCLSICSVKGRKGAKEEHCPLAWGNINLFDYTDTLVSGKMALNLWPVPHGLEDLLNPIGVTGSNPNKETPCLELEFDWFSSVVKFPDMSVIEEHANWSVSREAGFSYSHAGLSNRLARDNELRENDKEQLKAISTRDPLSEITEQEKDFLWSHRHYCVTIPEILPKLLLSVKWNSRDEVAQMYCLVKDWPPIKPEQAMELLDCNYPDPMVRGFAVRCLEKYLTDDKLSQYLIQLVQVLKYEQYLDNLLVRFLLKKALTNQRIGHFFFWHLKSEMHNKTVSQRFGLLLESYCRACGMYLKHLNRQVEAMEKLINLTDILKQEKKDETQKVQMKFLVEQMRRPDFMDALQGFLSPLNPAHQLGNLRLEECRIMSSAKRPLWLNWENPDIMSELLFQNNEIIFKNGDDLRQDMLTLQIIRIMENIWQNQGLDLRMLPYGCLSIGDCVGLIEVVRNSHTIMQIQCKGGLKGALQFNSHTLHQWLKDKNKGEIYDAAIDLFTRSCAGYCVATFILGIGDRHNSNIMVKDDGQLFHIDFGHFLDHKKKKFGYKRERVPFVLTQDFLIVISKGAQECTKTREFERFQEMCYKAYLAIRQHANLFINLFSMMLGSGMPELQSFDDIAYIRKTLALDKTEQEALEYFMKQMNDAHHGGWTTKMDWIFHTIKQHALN
UniProt P33032, sequence (whole entry, looked up): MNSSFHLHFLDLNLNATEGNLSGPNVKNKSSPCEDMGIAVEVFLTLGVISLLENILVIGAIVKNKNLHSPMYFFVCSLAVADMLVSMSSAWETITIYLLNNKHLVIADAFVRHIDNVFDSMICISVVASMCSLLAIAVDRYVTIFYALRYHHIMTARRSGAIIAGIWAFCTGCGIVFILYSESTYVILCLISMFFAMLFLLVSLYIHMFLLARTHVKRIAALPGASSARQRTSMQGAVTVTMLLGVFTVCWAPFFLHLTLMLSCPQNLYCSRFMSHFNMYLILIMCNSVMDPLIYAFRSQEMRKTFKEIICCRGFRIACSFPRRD
UniProt P31391, sequence (whole entry, looked up): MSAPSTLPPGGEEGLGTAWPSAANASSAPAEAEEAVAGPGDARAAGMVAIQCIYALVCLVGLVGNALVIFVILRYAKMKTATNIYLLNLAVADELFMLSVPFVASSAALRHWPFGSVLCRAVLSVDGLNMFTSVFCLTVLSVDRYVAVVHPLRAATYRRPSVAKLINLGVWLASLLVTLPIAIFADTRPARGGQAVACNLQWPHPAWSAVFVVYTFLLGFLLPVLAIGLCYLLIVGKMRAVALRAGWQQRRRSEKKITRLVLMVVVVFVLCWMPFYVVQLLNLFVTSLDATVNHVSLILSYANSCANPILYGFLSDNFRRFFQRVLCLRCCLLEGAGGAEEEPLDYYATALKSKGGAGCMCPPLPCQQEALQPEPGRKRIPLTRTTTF
UniProt Q9UK32, sequence (whole entry, looked up): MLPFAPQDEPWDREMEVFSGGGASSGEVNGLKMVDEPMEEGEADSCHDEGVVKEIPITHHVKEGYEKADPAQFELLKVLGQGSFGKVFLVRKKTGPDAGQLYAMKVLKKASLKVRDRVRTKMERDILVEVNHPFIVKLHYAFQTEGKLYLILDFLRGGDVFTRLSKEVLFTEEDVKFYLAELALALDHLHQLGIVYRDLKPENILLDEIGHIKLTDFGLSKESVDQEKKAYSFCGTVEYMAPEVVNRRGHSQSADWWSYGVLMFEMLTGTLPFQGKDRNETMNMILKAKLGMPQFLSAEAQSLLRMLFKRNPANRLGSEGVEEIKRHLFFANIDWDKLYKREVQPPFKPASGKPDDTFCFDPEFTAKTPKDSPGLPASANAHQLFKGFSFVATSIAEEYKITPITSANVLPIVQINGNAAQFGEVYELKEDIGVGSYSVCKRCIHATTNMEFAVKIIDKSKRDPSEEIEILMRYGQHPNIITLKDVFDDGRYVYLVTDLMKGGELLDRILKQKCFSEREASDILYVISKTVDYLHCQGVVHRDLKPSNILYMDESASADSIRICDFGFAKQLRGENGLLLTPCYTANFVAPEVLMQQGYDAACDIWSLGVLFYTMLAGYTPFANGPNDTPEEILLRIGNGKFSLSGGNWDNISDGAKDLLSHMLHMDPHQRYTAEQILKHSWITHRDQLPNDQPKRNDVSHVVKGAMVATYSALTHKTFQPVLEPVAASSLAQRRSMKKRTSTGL
UniProt P30411, sequence (whole entry, looked up): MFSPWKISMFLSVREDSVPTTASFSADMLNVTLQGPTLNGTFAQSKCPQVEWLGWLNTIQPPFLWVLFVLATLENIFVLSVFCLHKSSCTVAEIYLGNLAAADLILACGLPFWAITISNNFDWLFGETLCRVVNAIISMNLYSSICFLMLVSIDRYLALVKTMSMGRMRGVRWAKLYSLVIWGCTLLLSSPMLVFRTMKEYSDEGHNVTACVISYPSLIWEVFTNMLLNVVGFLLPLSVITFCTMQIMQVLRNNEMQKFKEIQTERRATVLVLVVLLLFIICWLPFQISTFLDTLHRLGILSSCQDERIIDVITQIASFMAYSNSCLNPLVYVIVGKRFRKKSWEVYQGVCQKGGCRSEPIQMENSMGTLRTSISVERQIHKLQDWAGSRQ

Series 1
Structure (SMILES): CC(C)CN(C)c1nc(N)c(C(=O)N=C(N)N)nc1Cl
Observed: β-arrestin recruitment
Mode: agonist
Technique: PRESTO-Tango
Concentration: 10 µM
Baseline: untreated
target	fold over basal
FFAR3 (Homo sapiens, UniProt O14843)	0.57 fold
MC5R (Homo sapiens, UniProt P33032)	1.1
HCRTR1 (Homo sapiens, UniProt O43613)	0.76 fold
Mas-related G-protein coupled receptor member G (MRGPRG, Homo sapiens, UniProt Q86SM5)	0.82
Probable G-protein coupled receptor 82 (GPR82, Homo sapiens, UniProt Q96P67)	1.13
SUCNR1 (Homo sapiens, UniProt Q9BXA5)	1.18 fold
SSTR4 (Homo sapiens, UniProt P31391)	1.38 fold
BDKRB2 (Homo sapiens, UniProt P30411)	0.77
PTGER3 (Homo sapiens, UniProt P43115)	0.99
Nociceptin receptor (OPRL1, Homo sapiens, UniProt P41146)	0.74
CMKLR1 (Homo sapiens, UniProt Q99788)	0.38
CXCR2 (Homo sapiens, UniProt P25025)	1.02
HTR1F (Homo sapiens, UniProt P30939)	0.72

Series 2
Target: Tyrosine-protein kinase JAK1 (JAK1, Homo sapiens, UniProt P23458)
UniProt P23458, sequence (whole entry, looked up): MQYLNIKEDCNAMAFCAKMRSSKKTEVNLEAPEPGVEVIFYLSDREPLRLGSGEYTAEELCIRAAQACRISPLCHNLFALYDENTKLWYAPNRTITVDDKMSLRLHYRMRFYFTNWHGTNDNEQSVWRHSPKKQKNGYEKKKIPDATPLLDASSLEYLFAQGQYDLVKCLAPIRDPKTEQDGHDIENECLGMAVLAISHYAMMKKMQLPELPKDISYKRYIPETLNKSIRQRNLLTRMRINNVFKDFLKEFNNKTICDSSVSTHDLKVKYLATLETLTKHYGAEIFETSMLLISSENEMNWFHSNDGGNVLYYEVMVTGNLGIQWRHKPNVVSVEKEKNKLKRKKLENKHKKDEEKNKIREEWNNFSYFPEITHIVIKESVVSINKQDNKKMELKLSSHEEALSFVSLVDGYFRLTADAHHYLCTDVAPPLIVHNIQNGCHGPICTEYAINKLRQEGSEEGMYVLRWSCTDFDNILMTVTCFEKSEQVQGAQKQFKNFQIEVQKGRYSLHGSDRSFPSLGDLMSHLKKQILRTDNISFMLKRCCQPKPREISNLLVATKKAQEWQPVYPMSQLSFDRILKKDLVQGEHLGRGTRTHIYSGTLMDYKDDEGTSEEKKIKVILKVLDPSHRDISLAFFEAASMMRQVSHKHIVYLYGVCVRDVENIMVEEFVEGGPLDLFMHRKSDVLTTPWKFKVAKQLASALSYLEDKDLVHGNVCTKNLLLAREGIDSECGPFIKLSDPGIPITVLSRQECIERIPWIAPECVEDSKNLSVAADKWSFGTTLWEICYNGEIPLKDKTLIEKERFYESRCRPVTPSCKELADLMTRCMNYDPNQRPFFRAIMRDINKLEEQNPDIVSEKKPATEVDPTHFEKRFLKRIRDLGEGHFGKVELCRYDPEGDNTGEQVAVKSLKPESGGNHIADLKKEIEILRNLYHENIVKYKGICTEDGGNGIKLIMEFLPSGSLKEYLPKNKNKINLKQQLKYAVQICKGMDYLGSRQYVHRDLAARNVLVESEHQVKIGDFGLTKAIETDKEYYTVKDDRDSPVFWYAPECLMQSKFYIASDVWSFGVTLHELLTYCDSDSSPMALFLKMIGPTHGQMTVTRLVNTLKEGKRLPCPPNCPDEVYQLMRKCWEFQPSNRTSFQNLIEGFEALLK
Observed: enzyme activity
Mode: inhibitor
Concentration: 0.5 µM
Baseline: control
SMILES	remaining activity [%]
COc1cc2ncnc(Nc3cccc(Cl)c3)c2cc1OC	90.4
CN([C@@H](Cc1ccc(OS(=O)(=O)c2cccc3cnccc23)cc1)C(=O)N1CCN(c2ccccc2)CC1)S(=O)(=O)c1cccc2cnccc12	108
N#Cc1c(NC(=O)c2cccc3ccccc23)sc2c1CCCC2	108
O=c1cc(-c2cccc3c2Sc2ccccc2S3)oc(N2CCOCC2)c1	105
O=C1C(Cl)=C(N2C(=O)CCC2=O)C(=O)c2ccccc21	107
Cc1cc2ncc(-c3ccccc3)nc2cc1C	103
O=C1c2ccccc2-c2n[nH]c3cccc1c23	87.2
COc1cc2c(cc1OC)-c1[nH]nc(Nc3cccc(F)c3)c1C2	97.6
CCOc1nc(NC(=O)Cc2cc(OC)ccc2OC)cc(N)c1C#N	110
Cc1nc2cc3nc(-c4cccs4)cnc3cc2n1C	105
N#C/C(=C\c1ccc(O)c(O)c1)C(=O)NCc1ccccc1	93.8
c1ccc(-c2cnc(Nc3ccc(OCCN4CCCC4)cc3)s2)cc1	101
Cc1cn(-c2cc(NC(=O)c3ccc(C)c(Nc4nccc(-c5cccnc5)n4)c3)cc(C(F)(F)F)c2)cn1	104
O=C(Nc1cccc(Nc2nccc(Nc3cccc(C(F)(F)F)c3)n2)c1)C1CC1	74
c1ccc(-c2[nH]ncc2-c2ccnc3ccccc23)nc1	96.7
CN(C)C[C@H]1CCn2c(c(C3=C(c4cn(C)c5ccccc45)C(=O)NC3=O)c3ccccc32)C1	108
CCN(CC)C(=O)c1ccc(Nc2nc(OCC3CCCCC3)c3[nH]cnc3n2)cc1	51.8
O=C(NC(NC(=S)Nc1ccc(F)c([N+](=O)[O-])c1)C(Cl)(Cl)Cl)C(c1ccccc1)c1ccccc1 (centres unmarked)	106
Cn1nc2c3c(cccc31)C(=O)c1ccccc1-2	110
COc1cc2ncnc(Nc3ccc(O)c(Br)c3)c2cc1OC	81.5
CCN(CC)CCNC(=O)c1c(C)[nH]c(/C=C2\C(=O)Nc3ccc(Cl)cc32)c1C	65.8
Ic1cccc(CSc2nnc(-c3ccncc3)o2)c1	103
Nc1cccc(-c2cc3c(Oc4cccc(O)c4)ncnc3[nH]2)c1	106

Series 3
SMILES: C[C@@]1(Cc2ccc(C#N)cc2)C(=O)N(c2cc(Cl)cc(Cl)c2)c2ncc(C(=O)NC3(c4nc(C5CCC5)no4)CC3)n21
Concentration: 1 µM
target	assay	remaining binding [%]
MUSK (Homo sapiens, UniProt O15146)	cell-free assay, competition with immobilised ligand	100
Ribosomal protein S6 kinase alpha-6, N-terminal kinase domain (RPS6KA6, Homo sapiens, UniProt Q9UK32)	cell-free assay, competition with immobilised ligand	100
PLK4 (Homo sapiens, UniProt O00444)	cell-free assay, competition with immobilised ligand	90
MAPK1 (Homo sapiens, UniProt P28482)	cell-free assay, competition with immobilised ligand	100
CAMK2G (Homo sapiens, UniProt Q13555)	cell-free assay, competition with immobilised ligand	100
FLT3 (Homo sapiens, UniProt P36888, F691L/ITD)	cell-free assay, competition with immobilised ligand	100
CDKL3 (Homo sapiens, UniProt Q8IVW4)	cell-free assay, competition with immobilised ligand	100
CDK18 (Homo sapiens, UniProt Q07002)	cell-free assay, competition with immobilised ligand	100
CDC42BPG (Homo sapiens, UniProt Q6DT37)	competition binding	100
COQ8A (Homo sapiens, UniProt Q8NI60)	cell-free assay, competition with immobilised ligand	90
PIK3CA (Homo sapiens, UniProt P42336, M1043I)	cell-free assay, competition with immobilised ligand	100
Insulin receptor (INSR, Homo sapiens, UniProt P06213)	cell-free assay, competition with immobilised ligand	89
LRRK2 (Homo sapiens, UniProt Q5S007)	cell-free assay, competition with immobilised ligand	93
PIK3CA (Homo sapiens, UniProt P42336, I800L)	cell-free assay, competition with immobilised ligand	88
PRKCE (Homo sapiens, UniProt Q02156)	cell-free assay, competition with immobilised ligand	100
TRPM6 (Homo sapiens, UniProt Q9BX84)	cell-free assay, competition with immobilised ligand	0
MAP3K20 (Homo sapiens, UniProt Q9NYL2)	cell-free assay, competition with immobilised ligand	100
NUAK1 (Homo sapiens, UniProt O60285)	cell-free assay, competition with immobilised ligand	100
EPHA4 (Homo sapiens, UniProt P54764)	cell-free assay, competition with immobilised ligand	100
MAPK8 (Homo sapiens, UniProt P45983)	cell-free assay, competition with immobilised ligand	100
TLK2 (Homo sapiens, UniProt Q86UE8)	cell-free assay, competition with immobilised ligand	97

Series 4
Target: Diamine acetyltransferase 1 (Homo sapiens, UniProt P21673)
Mode: inhibitor
Concentration: 10 µM
Baseline: control
Target sequence (P21673 1-171): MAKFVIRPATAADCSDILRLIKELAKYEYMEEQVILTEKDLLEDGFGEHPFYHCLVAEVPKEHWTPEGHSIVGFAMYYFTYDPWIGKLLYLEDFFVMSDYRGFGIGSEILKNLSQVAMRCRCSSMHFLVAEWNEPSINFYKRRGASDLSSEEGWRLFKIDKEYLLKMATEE
Structure (SMILES)	remaining activity
O=C(O)/C=C/c1ccc(O)c(O)c1	94.6%
CCCCCCCCCCCCCCCCCCCCCCCCCCCCCC(=O)O	80.5%
COc1cc(C(C)=O)ccc1O[C@@H]1O[C@H](CO)[C@@H](O)[C@H](O)[C@H]1O	82.3%
COc1cc(-c2oc3cc(O)cc(O)c3c(=O)c2O[C@@H]2O[C@H](CO)[C@@H](O)[C@H](O)[C@H]2O)ccc1O	110%
CCCCCCCCCCCCCCCO	87.7%
COc1ccc(C2COc3cc(O)ccc3C2)c(O)c1OC (centres unmarked)	68.4%
CCCCCCCCCCCCCCCCCCO	97.6%
CCCCCCCCCCCCCCCCCO	103%
CC(C)(O)[C@H]1CC[C@@](C)([C@H]2[C@@H](O)C[C@@]3(C)[C@@H]4C[C@H](O[C@@H]5O[C@H](CO)[C@@H](O)[C@H](O)[C@H]5O)[C@H]5C(C)(C)[C@@H](O[C@@H]6OC[C@@H](O)[C@H](O)[C@H]6O)CC[C@@]56C[C@@]46CC[C@]23C)O1	102%
O=C1c2cccc(O)c2C(=O)c2c(O)cccc21	103%
CC1=C(/C=C/C(C)=C/C=C/C(C)=C/CO)C(C)(C)CCC1	102%
O=c1cc(-c2ccc(O)c(O)c2)oc2c([C@@H]3O[C@H](CO)[C@@H](O)[C@H](O)[C@H]3O)c(O)cc(O)c12	91.9%
C/C=C(/C)C(=O)O	102%
C[C@@H]1O[C@@H](OC[C@H]2O[C@@H](Oc3c(-c4ccc(O)cc4)oc4cc(O[C@@H]5O[C@@H](C)[C@H](O)[C@@H](O)[C@H]5O)cc(O)c4c3=O)[C@H](O)[C@@H](O)[C@H]2O)[C@H](O)[C@H](O)[C@H]1O	98.1%
COc1ccc2c(OC)c3ccoc3nc2c1OC	88.4%
COc1cc2c(c(O)c1OC)C(=O)c1c(cc(C)c(O)c1OC)C2=O	121%
OCc1ccc(O)cc1	95.4%
